Experimental data pooled from the literature.
Numbered parts are unrelated; each lists some results of a single study. Several values in a cell are separate wells, animals, samples, runs or records.

Block 1 — cell line: mouse MPNST tumor cells; method: high-content immunofluorescence imaging; item: nuclear SOX9; tested at: 10 µM; time: 12 h; setting: mean of 2 replicates; reference: DMSO control; direction: higher = more nuclear SOX9
SMILES | nuclear SOX9 intensity
CC(=O)OCC(=O)[C@@]1(O)CC[C@H]2[C@@H]3CCC4=CC(=O)CC[C@]4(C)[C@@]3(F)[C@@H](O)C[C@@]21C | 80.9 % of DMSO
COc1ccncc1C(=O)NC(=O)Nc1ccc(-c2ccccc2)c(C(F)(F)F)c1 | 112 % of DMSO
Nc1ccc(S(=O)(=O)Nc2ccccn2)cc1 | 102 % of DMSO
Nc1ccc(S(N)(=O)=O)cc1 | 99 % of DMSO
Cc1nc(-c2cnn(C)c2-c2ccc(C(F)(F)F)cn2)c2c(N3CCC3)ncnn12 | 101 % of DMSO
COc1ccc(C(=O)c2ccccc2O)c(O)c1 | 100 % of DMSO
CC(=O)OCC(=O)[C@@]12OC(C)(C)O[C@@H]1C[C@H]1[C@@H]3C[C@H](F)C4=CC(=O)C=C[C@]4(C)[C@@]3(F)[C@@H](O)C[C@@]12C | 67.8 % of DMSO
COc1ccc2nc3n[nH]c(C)c3c(NCCOCCO)c2c1 | 104 % of DMSO
CC[C@@H](CO)NCCN[C@@H](CC)CO | 102 % of DMSO and 105 % of DMSO
CCCc1nc(C(C)(C)O)c(C(=O)O)n1Cc1ccc(-c2ccccc2-c2nnn[nH]2)cc1 | 117 % of DMSO and 102 % of DMSO
CN1Cc2c(N)cccc2C(c2ccccc2)C1 (stereo not shown) | 108 % of DMSO and 107 % of DMSO
O=C(Nc1cc(C(F)(F)F)ccc1N1CCCCC1)c1ccncc1 | 99.9 % of DMSO
O=C(Nc1ccccc1C(=O)NC1CCCCNC1=O)c1cc2ccccc2s1 (stereo not shown) | 120 % of DMSO
CCCCCCNC(=O)Nc1ccc(S(=O)(=O)Nc2ccc(CCNC[C@H](O)COc3ccc(O)cc3)cc2)cc1 | 139 % of DMSO
CC1=C(C(=O)Nc2cc(Cl)ccc2Cl)C(c2ccco2)C2=C(CCCC2=O)N1 (stereo not shown) | 95 % of DMSO
Clc1ccc2c(c1)C(N1CCNCC1)=Nc1ccccc1O2 | 165 % of DMSO and 173 % of DMSO

Block 2 — species: mouse; matrix: microsomes or S9; tested at: 2 µM; time: 0.5 h
SMILES | remaining compound [%]
Nc1ncnc2c1c(-c1cccc(OCc3ccccc3)c1)cn2C1CC(CN2CCCC2)C1 (stereo in doubt) | 6.97
CC1Cc2cc(-c3ccc(C#N)c(O)n3)ccc2O1 (stereo not shown) | 22
CCc1c2c(nc3sc(C(=O)N4CCc5cc(OC)c(OC)cc5C4)c(N)c13)CC(C)(C)CC2=O | 5.13
Cc1c(C)n2c3c(=O)[nH]c(=O)n(C)c3nc2n1CCN(C)C | 77.9
COCCOc1cc(=O)n2c(c1C(=O)Nc1cccc(OC)c1)CCOCC2 | 36.4
c1ccc2c(c1)nc(-c1ccsc1)n2Cc1ccsc1 | 0.223
Cc1cnc(C2CC2)n1C1CCN(C(=O)c2ccoc2)CC1 | > 100
Cc1nn(-c2cccc(Cl)c2)c(Cl)c1CN1CCn2c(n[nH]c2=O)C1 | 77.8
CC(C)(C)c1ccc(OCCOCCOc2ccc(C(C)(C)C)cc2O)c(O)c1 | 23.9
COc1ccc(-c2nnc(N)n2-c2ccc(C)cc2)c(OC)c1 | 88.4
CS(=O)(=O)N[C@@H]1[C@@H](NC(=O)C2=NNC(=O)CC2)[C@H]2CCO[C@H]21 | 98.5
CNS(=O)(=O)c1ccc(CCC(=O)N(Cc2ccc(F)cc2F)C2CCCC2)cc1 | 2.29

Block 3 — cell line: sample D normal colon organoid; method: CellTiter-Glo; tested at: 1 µM; setting: mean of replicates; reference: DMSO
Structure (SMILES) | viability [%]
Cn1cncc1[C@@](O)(COc1ccc(C#N)cc1-c1ccc(OC(F)(F)F)cc1)c1ccc(C#N)cc1 | 93.8
CCC(=O)N[C@@H]1CC[C@H](C(=O)N(C)c2ccc(-c3nc4ccccc4o3)cc2)C1 | 89.5
Cc1cn(-c2cc(NC(=O)c3ccc4c(c3)CN(c3cncnc3)C[C@@H]4C)cc(C(F)(F)F)c2)cn1 | 98.1
CN1CCN(C(=O)C(C)(C)c2ccc(C(=O)Nc3cn4cc(-c5cc(C(C)(C)C)cc(C(C)(C)C)c5)ccc4n3)cc2)CC1 | 107
NS(=O)(=O)c1cc(NC(=O)Cc2ccccc2)ccc1Oc1cccc(Cl)c1 | 96.7
CN(c1ccnc(CNc2nc(Nc3ccc4c(c3)CC(=O)N4)ncc2C(F)(F)F)n1)S(C)(=O)=O | 85.5
CC1=C(C#N)C(c2ccc3c(c2)c(NC(=O)c2ccccc2C)nn3C)C(C#N)=C(C)N1 | 98.1
C[C@H](c1ccc(F)cc1)N(Cc1cccc(C(=O)O)c1)C(=O)c1cnc2ccccc2c1 | 97.5
O=C1CCc2cc(Nc3cc(OC4CCOCC4)c([N+](=O)[O-])cc3Cl)ccc2N1 | 96
CN1CCN(Cc2ccc(Nc3ncc(Cl)c(Nc4ccccc4S(=O)(=O)N(C)C)n3)cc2)CC1 | 2.5
C[C@@H](c1cccc(C#N)c1)n1cc(Cl)cc(C(N)=O)c1=N | 124
Cc1c(NC(=O)c2cc(C(N)=O)nc3cc(F)ccc23)c(C(F)(F)F)nn1Cc1ccc(C#N)cc1 | 26
Cc1cc(-n2nc(Cc3cc(F)cc(C(F)(F)F)c3)nc2C)ccc1C(N)=O | 89
Cn1nc(C(F)(F)F)cc1-c1cnc(N2CCc3cc(S(=O)(=O)Nc4c(F)cc(Cl)cc4F)cc(N4CCCC4=O)c32)nc1 | 113

Block 4 — effect on: enzyme activity; mode: inhibitor; tested at: 0.5 µM; reference: control
Target: NUAK family SNF1-like kinase 1 (NUAK1, Homo sapiens, UniProt O60285)
Residues (O60285 1-661): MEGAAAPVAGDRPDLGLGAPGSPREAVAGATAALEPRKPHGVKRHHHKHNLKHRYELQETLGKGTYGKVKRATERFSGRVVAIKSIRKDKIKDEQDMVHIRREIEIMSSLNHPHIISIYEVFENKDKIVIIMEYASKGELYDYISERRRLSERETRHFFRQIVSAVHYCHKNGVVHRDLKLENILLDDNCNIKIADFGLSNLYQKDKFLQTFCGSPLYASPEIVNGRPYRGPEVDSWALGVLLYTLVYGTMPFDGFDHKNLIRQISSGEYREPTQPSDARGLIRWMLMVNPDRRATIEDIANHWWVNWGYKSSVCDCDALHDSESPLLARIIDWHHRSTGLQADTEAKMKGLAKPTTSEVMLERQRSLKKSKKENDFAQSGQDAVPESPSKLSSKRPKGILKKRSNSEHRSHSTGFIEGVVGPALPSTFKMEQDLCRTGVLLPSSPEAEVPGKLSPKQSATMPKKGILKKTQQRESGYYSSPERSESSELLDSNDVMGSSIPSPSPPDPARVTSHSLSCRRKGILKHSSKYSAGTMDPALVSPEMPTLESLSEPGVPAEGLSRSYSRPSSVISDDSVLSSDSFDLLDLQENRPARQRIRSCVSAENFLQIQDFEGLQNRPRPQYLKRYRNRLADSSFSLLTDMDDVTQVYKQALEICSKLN
Compound | remaining activity [%]
NC(=O)c1ccc(-c2nc(-c3ccc4c(c3)OCCO4)c(-c3ccccn3)[nH]2)cc1 | 93.4
CNc1cc2c(Nc3cccc(Br)c3)ncnc2cn1 | 97.5
O=C1c2ccccc2-c2nc3nnnn3nc21 | 89.8
CC(C)(C)c1nc2c3cc[nH]c(=O)c3c3cc(F)ccc3c2[nH]1 | 3.04
O=C(c1ccccc1)c1ccc(N2CCOCC2)cc1O | 94.9
N#C/C(=C(/N)SC1C=CC=CC1)c1cccc(C(O)c2ccncc2)c1 (stereo not shown) | 107
CC(C)n1cnc2c(Nc3cccc(Cl)c3)nc(NCCO)nc21 | 67.3
O=Nc1c(-c2c(O)[nH]c3ccccc23)[nH]c2ccccc12 | 8.89
FC(F)(F)c1ccc(/C=C/c2nc(COc3ccc(CCCCn4ccnn4)cc3)co2)cc1 | 103
NC(=O)c1cccc(-c2cc(Nc3ccc(OC(F)(F)F)cc3)ncn2)c1 | 96.7
O=C1NC(=O)/C(=C/c2ccc3c(c2)OC(F)(F)O3)S1 | 91.8
CC(C)N(CCC(=O)c1ccc2ccccc2c1)Cc1ccccc1 | 97.1
N#CC(c1ccnc(NCCc2cccnc2)n1)c1nc2ccccc2s1 (stereo not shown) | 91.8
C[C@@H](N)[C@H]1CC[C@H](C(=O)Nc2ccncc2)CC1 | 91.6
CCN(CC)CCCCN1c2ccccc2Oc2ccc(Cl)cc21 | 90.7
c1cc(-c2cnn3cc(-c4ccc(OCCN5CCCCC5)cc4)cnc23)ccn1 | 26.6
CCCCc1c(-c2ccc(O)cc2)[nH]c2nccnc12 | 19.1
COc1cc2c(N3CCN(C(=O)Nc4ccc(OC(C)C)cc4)CC3)ncnc2cc1OCCCN1CCCCC1 | 104
O=c1c(-c2ccc(F)cc2)c(-c2ccncc2)[nH]n1-c1ccc(Cl)cc1 | 89.1
O=C(O)/C=C/c1cc(Br)c(Br)c(Br)c1Br | 87.6
Nc1nc(Nc2ccc(S(N)(=O)=O)cc2)nn1C(=S)Nc1c(F)cccc1F | 2.13
Clc1ccc(Nc2nnc(Cc3ccncc3)c3ccccc23)cc1 | 112
